Measured values gathered from unrelated publications.
Each numbered part is a random draw from the data of one study; scales do not carry over between parts.

Series 1
Target: Histone acetyltransferase KAT6A, winged helix 1, GST fusion (KAT6A, Homo sapiens, UniProt Q92794, residues 1-85)
Method: protein binding microarray
Form: double-stranded DNA, one strand shown
Medium: in vitro
Tested at: not given
Notes: 8-mer, flanks averaged, mean of 2 arrays, mostly near background
Baseline: not given
Direction: higher = stronger binding
Residues (chain): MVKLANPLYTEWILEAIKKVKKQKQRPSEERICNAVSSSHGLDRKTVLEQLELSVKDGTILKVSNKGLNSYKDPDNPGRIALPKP
Oligonucleotide	E-score
GCCACAGC	-0.102
AGTTGGGA	-0.173
CGCGTTAA	0.291
GCGCGTAA	0.388

Series 2
Target: RING finger protein unkempt homolog, zinc fingers 1-6, GST-SBP tag (UNK, Homo sapiens, UniProt Q9C0B0, residues 30-357)
UniProt Q9C0B0, sequence (30-357, looked up): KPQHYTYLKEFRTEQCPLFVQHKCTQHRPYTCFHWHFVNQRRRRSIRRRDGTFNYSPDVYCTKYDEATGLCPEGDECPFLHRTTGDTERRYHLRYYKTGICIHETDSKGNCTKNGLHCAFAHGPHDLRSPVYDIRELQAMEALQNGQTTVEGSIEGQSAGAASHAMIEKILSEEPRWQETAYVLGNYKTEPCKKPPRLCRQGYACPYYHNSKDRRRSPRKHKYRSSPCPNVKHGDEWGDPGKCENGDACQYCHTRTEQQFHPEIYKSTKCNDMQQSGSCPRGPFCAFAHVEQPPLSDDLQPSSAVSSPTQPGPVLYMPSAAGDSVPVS
Method: RNA Bind-n-Seq
Form: RNA
Medium: in vitro
Tested at: not given
Notes: RNA with constant flanks, human and mouse sites, ends assumed
Baseline: input RNA pool
Direction: higher = stronger binding
All sequences stand within: GGGAGUUCUACAGUCCGACGAUC … CAACAGAGGAUUGAGCAUCA
Oligonucleotide	bound/input enrichment
AAAAUAAACAGAAUAGACCAUGACCGGAGAGCGAUGGCUACUUUAUUGAGUAAAUUCCGGAUAGACUUCUCUGAUAUCAUGGUCCUUGGAGAUAUCAACACCAAGCCAAAAAAAGAAAAU	0.264 ratio
CAGCACUGCCUCUCUGUUUGGGGAGAUGUAAUGCUGGAAGAUCUUAAGGACUACAUACAUUCUAGAGAUGACAGUGUUGUUCAAAGACAGCCUAGUAAGUAAUUGGUAGAAAUGCCCUUA	0.224 ratio
UGACCCUAUUUUCUUACAUGGCUCAAAUAAAACUAGUAUGCUGUUGUAUGAAUCUUUUACUGACCACACCAUCCAACUAUAAAAAUAUAACGGGACAGCUUUAAACCAAAGAUCAUGUUU	0.833 ratio
GUGUCGAGAGUCCCCUUCACGGAAGAGCAGCUCUUCAGCAUUUUUGACAUCGUCCCAGGCCUGGAGUAUUGUGAGGUUCCGCGAGAUCCUUAUUCAAAUUACGGUCAUGGUGUGGUUCAG	0.15 ratio
UGUCCCGAGUACUGAAAUUGCAGCAGACACCUUCAUGCCUUGCCCAGGCUUCUAGUCUUUUCCUCCUUCUGGUAAUGACUACUUCUUUUUUUUUUUUUAUUUUCUGUUGCUUUUCUUUGA	2.93 ratio

Further values, each from its own experiment
Molecule	target or system	assay	test system	conditions	how to read	quantity	value
PhoQ, residues 284 288 289 292 302 303 SSCLAV	PhoP, residues 12 14 15 18 19 SGWQI (Escherichia coli, UniProt P23836)	Sort-seq, item: YFP reporter	E. coli	PhoQ-PhoP variant library, added: 10 µM Mg2+	baseline: high Mg2+ state, higher = stronger signaling	fold induction	11.3
COPB1 (Homo sapiens, UniProt P53618)	GOLGA4 (Homo sapiens, UniProt Q13439)	cross-linking MS	cell fractions	added: DMTMM	–	cross-linked residues	D942 to K1941

For quick reference, copied from above (further values, each from its own experiment):
Molecule	target or system	assay	test system	conditions	how to read	quantity	value
PhoQ, residues 284 288 289 292 302 303 SSCLAV	PhoP, residues 12 14 15 18 19 SGWQI (Escherichia coli, UniProt P23836)	Sort-seq, item: YFP reporter	E. coli	PhoQ-PhoP variant library, added: 10 µM Mg2+	baseline: high Mg2+ state, higher = stronger signaling	fold induction	11.3
COPB1 (Homo sapiens, UniProt P53618)	GOLGA4 (Homo sapiens, UniProt Q13439)	cross-linking MS	cell fractions	added: DMTMM	–	cross-linked residues	D942 to K1941
